# Results pooled from the literature.
# Every numbered part comes from another study and shows a few of its results, in no order. Positions count from the first letter of the parent shown.

# Set 1
# Target: Sal-like protein 4, full length isoform B (SALL4, Homo sapiens, UniProt Q9UJQ4-2, residues 1-616)
# Technique: universal PBM
# Form: double-stranded DNA, one strand shown
# Sample: in vitro
# Concentration: not given
# Notes: 8-mer, flanks averaged, mean of replicates
# Reading: higher = stronger binding
# Construct (chain): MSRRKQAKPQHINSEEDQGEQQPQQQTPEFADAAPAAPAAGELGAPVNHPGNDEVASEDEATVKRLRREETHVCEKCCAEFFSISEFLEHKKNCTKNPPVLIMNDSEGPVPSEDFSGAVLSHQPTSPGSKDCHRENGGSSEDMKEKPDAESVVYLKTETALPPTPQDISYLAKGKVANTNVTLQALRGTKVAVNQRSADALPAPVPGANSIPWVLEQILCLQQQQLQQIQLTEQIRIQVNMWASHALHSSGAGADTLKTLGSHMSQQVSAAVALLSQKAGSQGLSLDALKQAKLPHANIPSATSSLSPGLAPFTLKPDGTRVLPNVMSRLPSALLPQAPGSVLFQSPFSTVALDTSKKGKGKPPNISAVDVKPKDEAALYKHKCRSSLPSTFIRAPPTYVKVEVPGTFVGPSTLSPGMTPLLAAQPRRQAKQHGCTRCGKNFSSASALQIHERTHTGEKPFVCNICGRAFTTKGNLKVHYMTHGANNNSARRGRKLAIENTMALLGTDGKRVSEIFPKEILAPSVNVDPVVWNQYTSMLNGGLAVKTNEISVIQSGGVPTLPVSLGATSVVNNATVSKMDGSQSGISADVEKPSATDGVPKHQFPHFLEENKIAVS
Strand,E-score
CGCCAACC,-0.185
AATGTCCT,0.154
GGTACGGA,-0.216
ACCGTACG,-0.0837
CATCCCTC,-0.179
ATTGGGAG,-0.0662
AACTAATT,0.292
CTACATTC,0.123
CCTTCTCA,-0.0909
AAGGCTGG,-0.215
GTTATTAA,0.443
CGCGTGCA,-0.0928
GCAAGGCC,-0.283
AAACCTGG,-0.21
GGAAGGGA,-0.257
CGGGTTAG,-0.315
GGAACGGA,-0.0957
GATTGACC,-0.0811
CAGTGGTA,-0.0944
ACGCAACG,-0.17
GTATTGAA,0.283
CCTACGCC,-0.246
CCAACAAC,-0.137
AGGTCGGG,-0.183
ACTTTATC,0.121

# Set 2
# Organism: Saccharomyces cerevisiae
# Read-out: binding
# Technique: yeast competitive growth sequencing
# Form: peptide
# Strain: cyclin D1-Cln2 strain
# Sample: peptide tiling library
# Notes: pooled screen
# Reading: direction not given
Molecule,enrichment score
RKLDLEGIGR,-0.534
RKLHFEDEVT,2.87
KVKRRLDLDIDGLQKE,-0.402
LRRKLFLDGNGSIS,-1.76
VSRNLRSSLKSSLHTL,-2.71
ARKRLELGNLGNPQ,-1.16
SCCKRKLVVGNGPEGP,-1.31
NNIRKALSFDNRGEEH,-0.817
GFGFLLFICKLTF,-0.941
LRRQLSFSED,0.182

# Set 3
# Target: Histone acetyltransferase KAT6A, winged helix 1, GST fusion (KAT6A, Homo sapiens, UniProt Q92794, residues 1-85)
# Technique: protein binding microarray
# Form: double-stranded DNA, one strand shown
# Sample: in vitro
# Concentration: not given
# Notes: 8-mer, flanks averaged, mean of 2 arrays, mostly near background
# Reference: not given
# Reading: higher = stronger binding
# Residues (chain): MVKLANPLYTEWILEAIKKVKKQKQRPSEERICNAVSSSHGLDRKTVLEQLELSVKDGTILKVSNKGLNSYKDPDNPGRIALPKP
Strand,E-score
AGGGGTTG,-0.156
GTGCAGCA,0.0176
ACAAGGCT,0.00252
TCCGAAAA,-0.0881
AGCCGAGG,0.0176
TAACACTA,0.0898
AAGTGCAT,-0.196
AGCTAAGC,0.00672
TAAGATCA,-0.074
ATCCCTTG,-0.15
GTTCCTCA,-0.0489
AGTCATAG,-0.211
ACAGAAAG,-0.175
CTTGAAAG,-0.172
CATCTTCC,-0.0183
ATCTAGGA,-0.0556
AGCCCTCC,-0.129
GATGTGCC,0.0362

# Set 4
# Target: RNA binding protein fox-1 homolog 2, RRM domain, GST-SBP tag (RBFOX2, Homo sapiens, UniProt O43251-10, residues 100-194)
# Technique: RNA Bind-n-Seq
# Form: RNA
# Sample: in vitro
# Concentration: 365 nM
# Notes: natural RNA segment, single round, ends assumed
# Reference: no-protein control
# Reading: higher = stronger binding
# Shared flanks, not repeated: GGGAGUUCUACAGUCCGACGAUC … UGGAAUUCUCGGGUGCCAA
# Target sequence (chain): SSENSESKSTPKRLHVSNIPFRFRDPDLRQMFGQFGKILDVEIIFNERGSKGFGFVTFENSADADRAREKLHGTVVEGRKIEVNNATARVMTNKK
Strand,RBNS enrichment (R)
AUUGUGCAAUUUAAGAAUAACUUAAGGAUCUUGGACUUUACAUAAAUCUUGAAUUGUAUAAACUCUACCUUGAGUCCAUUUUUUCUUCAGUGGAGUGGUGACAAAGAUUU,0.488
UGGCCUGGAUGCUUCCUCUCCCUGUCUCUCCCUUGCCCCACAGCGGUUCCCUGACAGCAGACAAGGCAGCUCUGGGAGGUAGCUAGUAUCCAAUAACCCAGGGGUUUCCU,0.361
AACCGCCACCUUUAGAAUUUCCAACACUCAGGCUCUGCCCGUCGGCUUGGCUGCAGGACAGAGACUUGACUCCAUCCCAGCUCUGGUCUUGGCUGGGAUGGCACUACCCU,0.232
UAUUACAGAAUAUUUUCAUGCAAUCAUGUGCACAUUAUUGGUAGCAAACAUAGUAUAUCCUUUAGUACUUUAACAUAUUUUUGUUAAAAUACUUUUAAUGGUAAGAAAUG,0.659
GAGACCAUAGUUGUCUGGUCAGAAAAAUUAUAUUAAAUUAGUAAAUUCUAGAAGCUCUUUAAAAGGGAAGUUUUCCUUCUUCUCCAAUUAUAGGAGUUGAUUUUUACUUU,0.616
ACAAGAUAAAUUGAGCUAGUUAAGGCAAAUCAGGUAAAAUAGUCAUGAUUCUAUGUAAUGUAAACCAGAAAAAAUAAAUGUUCAUGAUUUCAAGAUGUUAUAUUAAAGAA,0.499
GCACUAAAGGGCCAGUACCAGUGAGUGGCCCCACCUGUGUCCCCGAUGCUGACCUCACCUGGUCCUCCGCCUACUGUCCCUCUCAGUGCCUUCUCUCAGCUCCCAGGCCA,0.337
AUAGCCUCCAUGUGCUGCCCUUCUGCCCCAGAUCGUUUGUACAGAAAUCAUGCUGCCAUGGGUCACACUGGCCUCUCAGGCCCACCCGUCACGGGGAACACACAGCGUUA,0.383
ACCAAACAUUCAAUUUGGAAUAAGAAUGAUUUUUUAAAGUUCUGUCUGAAACAUUAUCAAACUUGUGUAAAUAUUUUGAUUUAUGUCUUAGAUCCUGUUAACCGUGUCCU,0.346
CCCUCGUGAUCCCAAACGACUCACUCCUUAAAUUCACACUUUGCCACUUAACUCCAGUGUGGAUGACAGAGCGAGACCCUGCCUCAAAAAAAAAAAAAAAAAAAGAAAGC,0.469
AGAACCUGGGCCUGGGGCCGGGACUCUGCAUGACUGGGAGCAAGUCACUUAAACCUCCUGUGCCUCGAUUUCCCCCUUCUACAAAGUGGGGCCAAUGAUUCUUGUGUGUC,2.16
UAUUACCAGGCUUUCCUUCUCACCCCUUUUUUCUGACUUUGCCAAGUAAUUUGUUGACACGAAAAUUUUGGAGGAACCAAUUGAAAACACACUUCCAGUCUAGAUGAUGC,0.706

# Set 5
# Target: ABI1, truncated, D143A, DHFR fusion (Arabidopsis thaliana)
# Technique: DHFR PCA, deep sequencing
# Sample: yeast
# Notes: methotrexate growth selection, single substitutions
# With: (+)-ABA 17 µM
# Reference: wild-type fitted maximum
# Reading: higher = stronger binding
# Starting sequence: PYL1, truncated, DHFR fusion (Arabidopsis thaliana); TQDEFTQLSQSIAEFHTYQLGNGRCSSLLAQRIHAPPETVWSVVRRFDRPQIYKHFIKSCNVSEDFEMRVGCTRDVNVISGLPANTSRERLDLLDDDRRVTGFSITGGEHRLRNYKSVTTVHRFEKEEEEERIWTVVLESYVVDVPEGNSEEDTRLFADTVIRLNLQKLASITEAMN; partner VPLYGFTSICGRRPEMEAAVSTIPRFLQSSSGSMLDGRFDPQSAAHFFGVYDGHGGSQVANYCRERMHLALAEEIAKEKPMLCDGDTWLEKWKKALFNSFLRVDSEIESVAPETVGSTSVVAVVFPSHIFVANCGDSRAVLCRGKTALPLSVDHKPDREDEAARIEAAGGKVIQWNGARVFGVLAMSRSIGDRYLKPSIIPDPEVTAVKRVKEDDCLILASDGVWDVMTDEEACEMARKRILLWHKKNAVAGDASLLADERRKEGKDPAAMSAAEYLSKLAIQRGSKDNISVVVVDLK
Change,relative binding score [%]
A30N,56.3
R69F,55.6
S27H,81.7
N149L,8.49
T120V,-5.52
I133V,101
A30V,82.3
E64L,71.6
A175N,92.3
D75Q,86.3
D153S,8.79
D144C,29.7
E14F,29.7
D75W,81.8
G102S,82.7
K58T,58.6
T39S,71.5
F15N,48.4
L156I,91.2
E127F,78.3
